# Measurements from different studies.
# Lines come from different studies, so protocols differ. ± gives the spread as reported.
# gag-pol reverse transcriptase: Gag-Pol polyprotein, reverse transcriptase (gag-pol, Human immunodeficiency virus 1, UniProt P03366)
# UniProt Q13639, sequence (whole entry, looked up): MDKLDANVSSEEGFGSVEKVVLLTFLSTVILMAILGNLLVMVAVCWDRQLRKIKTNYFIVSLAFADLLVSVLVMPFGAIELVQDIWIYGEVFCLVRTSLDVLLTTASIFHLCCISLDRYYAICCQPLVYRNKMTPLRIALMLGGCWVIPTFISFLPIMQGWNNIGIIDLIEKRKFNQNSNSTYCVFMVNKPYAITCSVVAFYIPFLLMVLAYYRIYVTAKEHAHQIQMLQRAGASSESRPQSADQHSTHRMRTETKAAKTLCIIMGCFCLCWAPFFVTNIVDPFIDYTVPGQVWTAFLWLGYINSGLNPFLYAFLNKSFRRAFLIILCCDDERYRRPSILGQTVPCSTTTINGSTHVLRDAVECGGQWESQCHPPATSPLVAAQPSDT
# UniProt P15207, sequence (whole entry, looked up): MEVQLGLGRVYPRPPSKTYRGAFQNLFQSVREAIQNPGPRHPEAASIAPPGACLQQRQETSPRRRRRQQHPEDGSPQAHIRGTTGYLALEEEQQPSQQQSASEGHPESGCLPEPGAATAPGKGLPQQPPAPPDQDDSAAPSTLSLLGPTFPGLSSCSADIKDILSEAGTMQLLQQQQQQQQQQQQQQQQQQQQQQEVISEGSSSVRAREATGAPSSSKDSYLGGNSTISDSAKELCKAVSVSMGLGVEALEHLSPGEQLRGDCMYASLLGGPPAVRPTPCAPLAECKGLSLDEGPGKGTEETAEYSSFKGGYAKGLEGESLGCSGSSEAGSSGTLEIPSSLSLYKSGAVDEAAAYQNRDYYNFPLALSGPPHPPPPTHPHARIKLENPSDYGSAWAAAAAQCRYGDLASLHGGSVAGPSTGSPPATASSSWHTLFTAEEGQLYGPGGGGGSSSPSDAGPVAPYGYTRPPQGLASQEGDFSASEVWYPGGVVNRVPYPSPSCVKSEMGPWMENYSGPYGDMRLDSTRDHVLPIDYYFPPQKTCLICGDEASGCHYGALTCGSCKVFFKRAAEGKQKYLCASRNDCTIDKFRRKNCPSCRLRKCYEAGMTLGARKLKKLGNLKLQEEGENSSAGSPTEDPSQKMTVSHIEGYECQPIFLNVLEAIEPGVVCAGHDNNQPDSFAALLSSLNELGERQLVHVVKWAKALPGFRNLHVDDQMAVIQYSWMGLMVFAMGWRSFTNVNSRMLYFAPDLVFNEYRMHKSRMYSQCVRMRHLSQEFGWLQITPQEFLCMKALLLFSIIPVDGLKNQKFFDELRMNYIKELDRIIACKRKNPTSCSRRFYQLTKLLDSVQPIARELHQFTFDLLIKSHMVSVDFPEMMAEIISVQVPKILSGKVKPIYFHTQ
# UniProt P03313, sequence (whole entry, looked up): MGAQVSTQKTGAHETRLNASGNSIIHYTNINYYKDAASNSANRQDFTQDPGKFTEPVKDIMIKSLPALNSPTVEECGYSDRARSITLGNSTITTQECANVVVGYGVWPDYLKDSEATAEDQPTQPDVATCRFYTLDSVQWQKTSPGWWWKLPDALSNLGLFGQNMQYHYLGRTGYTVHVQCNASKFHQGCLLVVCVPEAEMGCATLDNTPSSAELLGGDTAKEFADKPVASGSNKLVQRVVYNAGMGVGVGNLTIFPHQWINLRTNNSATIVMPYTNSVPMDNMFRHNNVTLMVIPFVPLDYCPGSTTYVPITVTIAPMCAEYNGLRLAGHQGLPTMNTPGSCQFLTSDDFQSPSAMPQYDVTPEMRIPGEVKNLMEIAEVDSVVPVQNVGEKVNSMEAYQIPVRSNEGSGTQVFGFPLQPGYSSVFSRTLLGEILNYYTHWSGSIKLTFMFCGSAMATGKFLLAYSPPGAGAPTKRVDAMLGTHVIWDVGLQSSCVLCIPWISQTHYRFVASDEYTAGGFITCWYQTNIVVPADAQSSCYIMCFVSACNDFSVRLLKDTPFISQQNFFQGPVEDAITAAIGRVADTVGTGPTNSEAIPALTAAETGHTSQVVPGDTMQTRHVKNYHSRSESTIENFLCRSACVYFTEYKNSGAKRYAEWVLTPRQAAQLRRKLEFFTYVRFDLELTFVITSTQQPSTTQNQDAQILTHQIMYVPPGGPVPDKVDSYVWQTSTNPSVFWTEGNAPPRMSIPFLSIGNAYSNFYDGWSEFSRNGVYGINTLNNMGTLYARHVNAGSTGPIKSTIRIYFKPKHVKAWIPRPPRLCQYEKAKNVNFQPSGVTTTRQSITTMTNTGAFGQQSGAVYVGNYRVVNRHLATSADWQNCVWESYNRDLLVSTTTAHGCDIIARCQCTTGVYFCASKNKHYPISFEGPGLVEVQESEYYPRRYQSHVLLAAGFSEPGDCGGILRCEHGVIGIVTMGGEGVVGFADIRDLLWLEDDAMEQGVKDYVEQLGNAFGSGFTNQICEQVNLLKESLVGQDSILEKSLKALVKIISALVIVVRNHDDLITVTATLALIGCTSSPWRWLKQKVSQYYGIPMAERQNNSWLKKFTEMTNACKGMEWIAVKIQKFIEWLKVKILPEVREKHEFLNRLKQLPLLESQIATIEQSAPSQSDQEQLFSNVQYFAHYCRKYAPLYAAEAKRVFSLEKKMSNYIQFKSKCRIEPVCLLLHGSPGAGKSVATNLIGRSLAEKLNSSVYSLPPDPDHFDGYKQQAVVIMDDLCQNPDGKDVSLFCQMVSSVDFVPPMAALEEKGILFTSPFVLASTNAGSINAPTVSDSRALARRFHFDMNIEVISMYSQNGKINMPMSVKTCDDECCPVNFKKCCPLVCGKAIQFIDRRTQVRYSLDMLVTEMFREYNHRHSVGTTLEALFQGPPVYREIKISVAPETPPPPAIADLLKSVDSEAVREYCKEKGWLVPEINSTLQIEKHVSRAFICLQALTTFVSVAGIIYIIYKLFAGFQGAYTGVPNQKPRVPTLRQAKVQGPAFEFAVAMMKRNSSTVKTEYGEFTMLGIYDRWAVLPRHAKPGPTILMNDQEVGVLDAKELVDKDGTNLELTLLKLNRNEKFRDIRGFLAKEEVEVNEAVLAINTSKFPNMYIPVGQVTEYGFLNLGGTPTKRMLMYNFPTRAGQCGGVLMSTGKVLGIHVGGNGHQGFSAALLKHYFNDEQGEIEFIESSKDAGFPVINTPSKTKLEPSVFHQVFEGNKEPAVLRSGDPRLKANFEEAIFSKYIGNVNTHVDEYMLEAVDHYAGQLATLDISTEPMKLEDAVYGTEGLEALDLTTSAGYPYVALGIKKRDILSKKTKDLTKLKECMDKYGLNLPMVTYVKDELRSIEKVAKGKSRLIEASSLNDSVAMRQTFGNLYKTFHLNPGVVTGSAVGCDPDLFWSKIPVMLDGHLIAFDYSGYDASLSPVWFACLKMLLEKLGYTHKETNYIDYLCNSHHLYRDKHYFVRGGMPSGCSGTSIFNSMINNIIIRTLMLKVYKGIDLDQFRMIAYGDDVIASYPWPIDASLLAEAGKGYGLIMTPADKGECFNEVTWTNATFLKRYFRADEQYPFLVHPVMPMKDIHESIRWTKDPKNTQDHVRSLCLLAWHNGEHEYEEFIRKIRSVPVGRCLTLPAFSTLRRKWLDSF
# UniProt Q8BHN3, sequence (whole entry, looked up): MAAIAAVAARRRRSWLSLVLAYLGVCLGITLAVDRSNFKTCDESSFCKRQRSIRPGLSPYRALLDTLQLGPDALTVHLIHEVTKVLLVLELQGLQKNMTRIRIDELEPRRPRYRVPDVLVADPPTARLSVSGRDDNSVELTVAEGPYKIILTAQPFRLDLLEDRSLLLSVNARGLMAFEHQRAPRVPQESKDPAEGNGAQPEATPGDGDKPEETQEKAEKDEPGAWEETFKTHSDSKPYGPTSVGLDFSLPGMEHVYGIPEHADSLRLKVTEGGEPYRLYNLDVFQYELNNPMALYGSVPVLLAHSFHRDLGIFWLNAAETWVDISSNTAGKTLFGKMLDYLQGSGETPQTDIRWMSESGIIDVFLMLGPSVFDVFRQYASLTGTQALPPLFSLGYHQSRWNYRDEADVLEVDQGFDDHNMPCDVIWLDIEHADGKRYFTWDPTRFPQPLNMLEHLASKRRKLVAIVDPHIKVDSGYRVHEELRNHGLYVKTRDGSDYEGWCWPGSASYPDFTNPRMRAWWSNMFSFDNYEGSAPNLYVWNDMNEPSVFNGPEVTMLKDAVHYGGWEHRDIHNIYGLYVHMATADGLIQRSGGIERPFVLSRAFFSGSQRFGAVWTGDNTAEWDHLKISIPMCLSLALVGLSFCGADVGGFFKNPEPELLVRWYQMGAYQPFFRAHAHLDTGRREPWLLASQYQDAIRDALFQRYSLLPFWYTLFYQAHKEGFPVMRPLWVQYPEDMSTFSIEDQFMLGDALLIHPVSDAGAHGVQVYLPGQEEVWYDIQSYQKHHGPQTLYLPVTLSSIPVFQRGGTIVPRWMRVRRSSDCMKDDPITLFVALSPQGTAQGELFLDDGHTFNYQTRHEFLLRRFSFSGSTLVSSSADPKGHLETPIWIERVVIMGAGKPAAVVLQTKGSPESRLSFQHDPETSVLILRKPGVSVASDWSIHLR
# UniProt Q9NZQ7, sequence (whole entry, looked up): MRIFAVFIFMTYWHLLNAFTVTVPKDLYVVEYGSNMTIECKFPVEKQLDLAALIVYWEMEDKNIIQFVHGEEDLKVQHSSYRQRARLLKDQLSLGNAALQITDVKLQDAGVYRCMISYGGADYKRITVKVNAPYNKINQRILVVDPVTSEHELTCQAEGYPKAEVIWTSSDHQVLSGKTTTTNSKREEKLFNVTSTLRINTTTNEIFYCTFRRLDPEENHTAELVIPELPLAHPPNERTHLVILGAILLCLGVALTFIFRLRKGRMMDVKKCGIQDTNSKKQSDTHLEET
SMILES,target,assay,test system,setting,IC50
COc1cc(Nc2ncc(F)c(Nc3ccc4c(n3)NC(=O)C(C)(C)O4)n2)cc(OC)c1OC,"TBXAS1 (Homo sapiens, UniProt P24557)",,,,> 10 µM
CSCC[C@H](NC(=O)[C@@H](NC(=O)[C@H](Cc1ccccc1)NC(=O)[C@H](Cc1c[nH]c2ccccc12)NC(=O)[C@H](C)NC(C)=O)C(C)C)C(=O)N[C@@H](Cc1ccccc1)C(=O)N[C@@H](Cc1ccc(O)cc1)C(N)=O,"Programmed cell death 1 ligand 1, with PD-1 (CD274, Homo sapiens, UniProt Q9NZQ7)","PD-1/PD-L1 binding, ELISA",,added: biotinylated human PD-1,4.87 µM
CC(C)C[C@H](NC(=O)[C@H](Cc1ccccc1)NC(=O)c1cnccn1)B(O)O,"Dipeptidyl peptidase 2 (Homo sapiens, UniProt Q9UHL4)","enzyme activity, inhibitor",,added: FP-biotin 1 µM,8.51 µM
COc1ncccc1-c1cnn2ccc(N3CCN(C(=O)OC(C)C)CC3)nc12,"HTR4 (Homo sapiens, UniProt Q13639)",liability screen,,,> 30 µM
C/C1=C/C(=O)O[C@@H]2C[C@@H](CC[C@H](C)/C=C\C=C\CC1)O[C@@](OCCc1ccccc1)([C@@H]1CSC(=O)N1)C2,"Actin, alpha skeletal muscle, pyrene-labeled (ACTA1, Oryctolagus cuniculus, UniProt P68135)","actin polymerization, pyrene actin",,,0.184 ± 0.048 µM
CC[C@H](C)[C@H](NC(=O)[C@H](CO)NC(=O)[C@@H](NC(=O)[C@H](CC(N)=O)NC(=O)[C@H](Cc1ccc(O)cc1)NC(=O)[C@H](Cc1ccccc1)NC(=O)[C@@H](NC(=O)[C@H](CCC(=O)O)NC(=O)[C@@H](NC(=O)[C@H](CC(=O)O)NC(=O)[C@@H](N)CCCNC(=N)N)[C@@H](C)CC)[C@@H](C)O)[C@@H](C)O)C(=O)O,"Uncharacterized protein (Equus caballus, UniProt Q38RB9)","peptide binding, competitor, competitive radioligand binding",purified horse MHC class I,pH 7,0.00014 µM
c1ccc2c(c1)-c1cccc3c1c-2cc1ccccc13,"Cytochrome P450 2A13 (Homo sapiens, UniProt Q16696)","enzyme activity, inhibitor",,"20 min, pH 7.4",> 200 µM
CC(=O)[C@H]1CC[C@H]2[C@@H]3C[C@H](C)C4=CC(=O)CC[C@]4(C)[C@H]3[C@@H](O)C[C@]12C,"Androgen receptor (Ar, Rattus norvegicus, UniProt P15207)",inhibitor,,,0.257 µM
COC(CNC(=O)c1ccccc1OCC(=O)O)[CH2][Hg][OH] (centres unmarked),"SLC25A13 (Homo sapiens, UniProt Q9UJS0)",aspartate/glutamate exchange,proteoliposomes,"1 min, added: [14C]Asp 1 mM, Glu 20 mM inside",0.3 ± 0.05 µM
O=C1CSC(c2c(Cl)cccc2Cl)N1c1nc(-c2ccc(S(=O)(=O)N3CCCC3)cc2)cs1 (centres unmarked),gag-pol reverse transcriptase,,,,> 4 µM
NC(=NCc1ccccc1)NC(=O)c1nc(Cl)c(N2CCCCCC2)nc1N,"Genome polyprotein, 3D RNA polymerase (Coxsackievirus B3, UniProt P03313)","RNA polymerase activity, inhibitor, single AMP incorporation",,Mg2+ preincubation,> 75 µM
O=C1CSC(c2cccc(Cl)c2)N1c1nc(-c2ccc(S(=O)(=O)N3CCCC3)cc2)cs1 (centres unmarked),gag-pol reverse transcriptase,,,,0.18 µM
O=[N+]([O-])c1cc(-c2ccnc(N3CCOCC3)n2)ccc1NCCCCCCN1C[C@H](O)[C@@H](O)[C@H](O)[C@H]1CO,"Ganab (Mus musculus, UniProt Q8BHN3)","enzyme activity, inhibitor",,added: 4-methylumbelliferyl substrate,< 0.001 µM
c1ccc2c(c1)OCC(C1=NCCN1)O2 (centres unmarked),rat imidazoline I2 receptor,radioligand binding,brain,,0.00696 µM
